Experimental data pooled from the literature.
Lines come from different studies, so protocols differ. ± marks the error that the study gave.

For CC(=O)N[C@@H](CCCNC(=N)N)C(=O)N[C@@H](CCCNC(=N)N)C(=O)N[C@@H](CCCNC(=N)N)C(=O)N[C@@H](CCCNC(=N)N)C(=O)N[C@@H](CCCNC(=N)N)C(=O)N[C@@H](CCCNC(=N)N)C(=O)N[C@@H](CCCNC(=N)N)C(=O)N[C@@H](CCCNC(=N)N)C(=O)N[C@@H](CCCNC(=N)N)C(=O)N[C@@H](CCCNC(=N)N)C(=O)NCC(=O)N[C@@H](COP(=O)(O)O)C(=O)N1CCC[C@H]1C(=O)N[C@H](C(=O)N[C@@H](Cc1ccccc1)C(=O)O)[C@@H](C)O, BRCA1-Abraxas interaction read “no effect” (HeLa; co-immunoprecipitation; nuclear fraction; up to 100 µM).
For Cc1ccc2ccc3ccc(C)nc3c2n1.O.[99Tc+].[C-]#[O+].[C-]#[O+].[C-]#[O+], IC50 change read “no effect” (HeLa; together with: 3-methyladenine).
CC[C@H](C)[C@H](NC(C)=O)C(=O)N[C@@H](CC(N)=O)C(=O)N[C@@H](Cc1c[nH]c2ccccc12)C(=O)N[C@@H](Cc1c[nH]cn1)C(=O)NCC(=O)N[C@H](C(=O)N[C@@H](C)C(=O)N[C@@H](Cc1c[nH]cn1)C(=O)N[C@@H](CCSC)C(=O)N[C@@H](C)C(=O)N[C@@H](CCCCN)C(=O)N[C@@H](CCCCN)C(=O)N[C@@H](CC(C)C)C(=O)N[C@@H](CC(C)C)C(N)=O)[C@@H](C)CC has a Hill coefficient of 1.4 ± 0.1 (human erythrocytes; hemolysis; no metal added).
The EC50 of Cc1cc2c(C(=O)Cc3ccccc3)c(O)c(O)cc2c(O)c1-c1c(C)cc2c(C(=O)Cc3ccccc3)c(O)c(O)cc2c1O is reported as 2.6 µM (RS11846; ATP-lite viability; 72 h).
O=C(O)c1ccc(/C=C2\SC(=S)N(Cc3cccc(C(F)(F)F)c3)C2=O)cc1 — result for cell death: “inhibited” (LPS-primed mouse BMDM; measured: LDH release; concentration not given, together with: nigericin).
For CC[C@H](C)[C@H](NC(C)=O)C(=O)N[C@@H](CC(N)=O)C(=O)N[C@@H](Cc1c[nH]c2ccccc12)C(=O)N[C@@H](Cc1c[nH]cn1)C(=O)N[C@@H](C)C(=O)N[C@H](C(=O)N[C@@H](C)C(=O)N[C@@H](Cc1c[nH]cn1)C(=O)N[C@@H](CCSC)C(=O)N[C@@H](C)C(=O)N[C@@H](CCCCN)C(=O)N[C@@H](CCCCN)C(=O)N[C@@H](CC(C)C)C(=O)N[C@@H](CC(C)C)C(N)=O)[C@@H](C)CC, the Hill coefficient was 1 ± 0.1 (human erythrocytes; haemolysis; together with: Zn(II) 300 µM).
With CC12OOC(C)(OO1)C2CCC(=O)NCCNc1ccnc2cc(Cl)ccc12 (stereo not shown) the inhibition was 52.8% (CCRF-CEM; cell growth or viability, resazurin; 10 µM, 48 h).
Under protein level, COc1ccc(/C=C/C(=O)CC(=O)/C=C/c2ccc(OC)c(OC)c2)cc1OC is recorded as “decreased” (LN-229; Western blot, measured: p-mTOR, p-CDC2, BCL-2; concentration not given, 24 h).
The selectivity ratio of CNC(=O)c1cc(Oc2ccc(NC(=O)c3ccc(-c4ccccc4OC(=O)CCC(=O)OC4OC5OC6(C)CCC7C(C)CCC(C4C)C57OO6)cn3)cc2)ccn1 (stereo not shown) is reported as over 17.1 (Huh-7 and LO2; cell viability, MTT; 72 h; relative to: IC50 LO2 over IC50 Huh-7).
C#CCCCCOc1ccc2c(c1)CCCN2C(=O)CCl: “number of hyperreactive proteins” 667 proteins (H460 cell lysate; MS-ABPP; 100 µM; reactivity ratio below 2).
With CN[C@](C)(C[18F])C(=O)O the tracer uptake was 13 %ID/g (SK-OV-3 tumour model; host not given, tumour; 1 h, tumour-bearing).
Under “Ca2+ transient amplitude”, Cc1cc(CS(=O)(=O)c2ccccc2)cc(OCc2ccc(CN3CCC[C@@H]3CO)cc2)c1 is recorded as 14.1 ± 3% (U2OS; NAADP-evoked Ca2+ release; 10 µM, 10 min pretreatment, together with: NAADP 100 nM microinjected; relative to: NAADP alone).
For CC1=CCC23OC2(C)CCC2C(C[N+](C)(C)C)C(=O)OC2C13.[I-] (stereo not shown), the inhibition was 58.4% (BT-549; cell growth or viability, SRB; 8.3 µM).
For CCOC(=O)[C@H]1O[C@@H]1C(=O)N(CC(C)C)NC(=O)[C@H](C)NC(=O)[C@H](CCC(=O)O)NC(=O)OCc1ccccc1, actin crosslinking read “inhibited” (HFF; inhibitor; concentration not given, together with: Vibrio cholerae supernatant, MARTX toxin).
The selectivity ratio of CNC(=O)c1cc(Oc2ccc(NC(=O)c3ccc(-c4cccc(OC(=O)CCC(=O)OC5OC6OC7(C)CCC8C(C)CCC(C5C)C68OO7)c4)cn3)cc2)ccn1 (stereo not shown) is reported as 18.6 (Huh-7 and LO2; cell viability, MTT; 72 h; relative to: IC50 LO2 over IC50 Huh-7).
With COCCOCCOCCOc1ccc(-n2cc(CCCN(CCNc3ccnc4cc(Cl)ccc34)C(=O)CCC(=O)OC3OC4OC5(C)CCC6C(C)CCC(C3C)C46OO5)nn2)cc1 (stereo not shown) the inhibition was 36.9% (CCRF-CEM; cell growth or viability, resazurin; 10 µM, 48 h).
FC(F)(F)c1ccc2nc3c4cccnc4c4ncccc4c3nc2c1.[Cl-].[Cl-].[Ru+2].c1ccncc1.c1ccncc1.c1ccncc1.c1ccncc1 gave a viability of 90% (L-O2; 5 µM, 24 h, with irradiation).
With CCC(=O)CCC[C@H](C)C[C@H](NC(=O)[C@@H]1C[C@H](C)CN1C(=O)/C=C/[C@@H](C)CC)C(=O)N[C@H](C(=O)NC(C)(C)C(=O)N[C@@H](CC(C)C)C(=O)N[C@@H](CC(C)C)C(=O)NC(C)(C)C(=O)NC(C)(C)C(=O)NCCC(=O)N[C@@H](C)CNC)[C@H](O)C(C)C the GI50 was 0.0054 µM (MDA-MB-453; cell growth or viability, SRB; 48 h).
With CNC(=O)c1cc(Oc2ccc(NC(=O)c3ccc(-c4ccc(COC(=O)CCC(=O)OC5OC6OC7(C)CCC8C(C)CCC(C5C)C68OO7)cc4)cn3)cc2)ccn1 (stereo not shown) the selectivity ratio was over 10.1 (Hep3B and LO2; cell viability, MTT; 72 h; relative to: IC50 LO2 over IC50 Hep3B).
C=CC[P](c1ccccc1)(c1ccccc1)[Pt]([S]c1ccccn1)([S]c1ccccn1)[P](CC=C)(c1ccccc1)c1ccccc1: “early apoptotic cells” 40.8% (MCF7; annexin V/7-AAD flow cytometry; 5 µM).
The selectivity index of CC(=O)Oc1cccc(/C=C/C(=O)Nc2nc(=O)n([C@@H]3O[C@H](C)[C@@H](OC(C)=O)[C@H]3OC(C)=O)cc2F)c1 is reported as 2.98 (BXPC-3; cell viability, MTT; relative to: NHDF fibroblasts over BXPC-3).
For CN1CCc2[nH]c3ccc(Cl)cc3c2CC1, “dendritic arbor complexity” read “not toxic” (rat embryonic cortical neurons; Sholl analysis; dose not given, DIV6; relative to: vehicle).
For CCCCCCCCCCCCCC(=O)NCC(=O)N[C@@H](CCCNC(=N)N)C(=O)N[C@@H](Cc1c[nH]c2ccccc12)C(=O)N[C@@H](CCCCN)C(=O)N[C@H](C(=O)N[C@@H](Cc1ccccc1)C(=O)N[C@@H](CCCCN)C(=O)N[C@@H](CCCCN)C(=O)N[C@H](C(=O)N[C@@H](CCC(=O)O)C(=O)N[C@@H](CCCCN)C(=O)N[C@H](C(=O)NCC(=O)N[C@@H](CCC(N)=O)C(=O)N[C@@H](CC(N)=O)C(=O)N[C@H](C(=O)N[C@@H](CCCNC(=N)N)C(=O)N[C@@H](CC(=O)O)C(=O)NCC(=O)N[C@H](C(=O)N[C@H](C(=O)N[C@@H](CCCCN)C(=O)N[C@@H](C)C(=O)NCC(=O)N1CCC[C@H]1C(=O)N[C@@H](C)C(=O)N[C@H](C(=O)N[C@@H](C)C(=O)N[C@H](C(=O)N[C@H](C(=O)NCC(=O)N[C@@H](CCC(N)=O)C(=O)N[C@@H](C)C(=O)N[C@@H](C)C(=O)N[C@H](C(=O)N[C@H](C(N)=O)[C@@H](C)CC)[C@@H](C)O)C(C)C)C(C)C)C(C)C)C(C)C)[C@@H](C)CC)[C@@H](C)CC)C(C)C)[C@@H](C)CC)[C@@H](C)CC, Bax/Bcl-2 ratio read “increased” (K562/MDR; western blot; concentration not given, 16 h).
The inhibition of CC12CCC3(CCC(=O)NCCNc4ccnc5cc(Cl)ccc45)C(C)(OOC3(C)O1)O2 is reported as 16% (CCRF-CEM; cell growth or viability, resazurin; 10 µM, 48 h).
For CSCC[C@H](NC(=O)[C@H](CC(C)C)NC(=O)CNC(=O)[C@H](Cc1ccccc1)NC(=O)[C@H](Cc1ccccc1)NC(=O)[C@H](CCC(N)=O)NC(=O)[C@H](CCC(N)=O)NC(=O)[C@@H]1CCCN1C(=O)[C@H](CCCCN)NC(=O)[C@@H]1CCCN1C(=O)[C@@H](N)CCCNC(=N)N)C(N)=O, “onset delay of degranulation” read 250 s (rat mast cells; whole-cell patch-clamp capacitance; 25 µM, intracellular, 200 µM EGTA).
The GI50 of COc1cc(/C=C(\C#N)C(=O)Nc2nnc(C(F)(F)F)s2)ccc1OC(=O)N1CCN(C(=O)CCCC(=O)NCCCC[C@@H]2NC(=O)[C@@H](Cc3ccc(O)cc3)NC(=O)[C@H](CC(=O)O)NC(=O)CNC(=O)[C@H](CCCNC(=N)N)NC2=O)CC1 is reported as 49 µM (MRC5; cell growth or viability, MTT).
The efflux ratio of CN(C)CC1CCCCC1(O)c1cccc(O)c1 (stereo not shown) is reported as 2.3 (Caco-2 TC7 monolayer; 50 µM, 3 h, apical pH 6.8, basolateral pH 7.4; relative to: B-to-A over A-to-B).
With CC1CCC2C(C)C(OC(=O)CCC(=O)N(CCCc3cn(-c4ccc([N+](=O)[O-])cc4)nn3)CCNc3ccnc4cc(Cl)ccc34)OC3OC4(C)CCC1C32OO4 (stereo not shown) the inhibition was 52.3% (CCRF-CEM; cell growth or viability, resazurin; 10 µM, 48 h).
CC(C)CC(O)(CC(C)C)c1cn(C(=O)N2CCCC2)nn1 gave a protein level of 0.97 ± 0.09 (mouse T-cells; SILAC proteomics, measured: PTPN18; 1 nM, 6 h, unit not given; relative to: DMSO).
For NC1CCCCC1N.O=C1[O][Pt]([O]C(=O)c2ccc(P(c3ccccc3)c3ccccc3)cc2)([O]C(=O)c2ccc(P(c3ccccc3)c3ccccc3)cc2)[O]C1=O.[Cl][Au].[Cl][Au], “tube node disruption” read 34% (HUVEC; tube formation; IC10, 16 h).
With CC/C=C\C/C=C\C/C=C\C/C=C\C/C=C\C/C=C\CCC(=O)Nc1ccn(C2OC(CO)C(O)C2(F)F)c(=O)n1 (stereo not shown) the CC50 was 55.3 µM (IGROV-1; NCI60 screen).
For O=C(O)CCC(NP(=O)(O)OCCC[C@@H](NC(=O)CCC(NC(=O)CCCCCNC(=O)CCCCCNC(=O)c1ccc([18F])cc1)C(=O)O)C(=O)O)C(=O)O (stereo partly shown), the internalized fraction was 91.3% (CWR22Rv1; 2 h).
C=CC(=O)Oc1ccc(Cl)cc1C(=O)Nc1ccc([N+](=O)[O-])cc1Cl: cell death “increased” (C4-2B MDVR cells; ELISA; 0.5 and 1.0 µM).
The inhibition of CC12CCC3(CCC(=O)OCCNc4ccnc5cc(Cl)ccc45)C(C)(OOC3(C)O1)O2 is reported as 31.9% (RPMI-8226; cell growth or viability, resazurin; 10 µM, 48 h).

Some of these lines once more:
With COCCOCCOCCOc1ccc(-n2cc(CCCN(CCNc3ccnc4cc(Cl)ccc34)C(=O)CCC(=O)OC3OC4OC5(C)CCC6C(C)CCC(C3C)C46OO5)nn2)cc1 (stereo not shown) the inhibition was 36.9% (CCRF-CEM; cell growth or viability, resazurin; 10 µM, 48 h).
FC(F)(F)c1ccc2nc3c4cccnc4c4ncccc4c3nc2c1.[Cl-].[Cl-].[Ru+2].c1ccncc1.c1ccncc1.c1ccncc1.c1ccncc1 gave a viability of 90% (L-O2; 5 µM, 24 h, with irradiation).
